Assay results gathered from unrelated publications.
Protocols differ between the studies behind these lines.
Target: Serine/threonine-protein kinase SIK1 (SIK1, Homo sapiens, UniProt P57059)
UniProt P57059, sequence (whole entry, looked up): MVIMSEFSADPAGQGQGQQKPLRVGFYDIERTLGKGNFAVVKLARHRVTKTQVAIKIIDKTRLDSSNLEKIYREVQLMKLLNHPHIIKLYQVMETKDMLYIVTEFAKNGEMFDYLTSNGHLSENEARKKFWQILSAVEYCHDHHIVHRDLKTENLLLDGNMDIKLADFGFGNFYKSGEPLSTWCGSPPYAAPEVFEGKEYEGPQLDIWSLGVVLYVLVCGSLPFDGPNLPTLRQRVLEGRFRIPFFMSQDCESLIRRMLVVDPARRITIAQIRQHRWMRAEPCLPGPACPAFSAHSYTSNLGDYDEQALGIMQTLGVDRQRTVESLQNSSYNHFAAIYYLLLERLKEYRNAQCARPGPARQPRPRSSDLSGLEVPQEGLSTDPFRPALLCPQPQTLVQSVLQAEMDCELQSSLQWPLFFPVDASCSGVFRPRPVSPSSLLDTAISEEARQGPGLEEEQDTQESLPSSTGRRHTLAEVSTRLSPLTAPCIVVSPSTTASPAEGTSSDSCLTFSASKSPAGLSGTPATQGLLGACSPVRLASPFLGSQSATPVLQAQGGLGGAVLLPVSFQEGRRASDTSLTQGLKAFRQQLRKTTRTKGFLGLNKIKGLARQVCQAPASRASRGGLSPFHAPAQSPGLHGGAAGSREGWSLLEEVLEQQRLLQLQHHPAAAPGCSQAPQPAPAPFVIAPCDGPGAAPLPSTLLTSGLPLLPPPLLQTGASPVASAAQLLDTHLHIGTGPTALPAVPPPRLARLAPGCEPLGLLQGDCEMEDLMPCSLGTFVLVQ

For COc1ncc2cc3ccccc3nc2c1C#N, the remaining binding was 97% (KINOMEscan; 5 µM; baseline: DMSO).
O=C(NCC1CCOCC1)c1n[nH]cc1NC(=O)c1c(F)cccc1F has a remaining binding of 97% (scanMAX; 1 µM; baseline: untreated).
COc1cc(N2CCN(C)CC2)ccc1Nc1nc(N)n(C(=S)NCc2c(Cl)cccc2Cl)n1 has a remaining activity of 0.15% (enzyme activity; 10 µM; baseline: control).
For C=CC(=O)N1CCC(C(=O)NCC(=O)N2CCN(c3nc(-c4cnc(N)nc4C(F)F)nc(N4CCOCC4)n3)CC2)CC1, the remaining binding was 89% (KINOMEscan; 1 µM).
CC/C(=N\NC(=O)NCc1cccc(O)c1)c1ccc(O)c(C)c1O has an inhibition of -0.7% (kinase activity; 0.1 µM).
With C[C@@H](c1ccc(-n2cnc3c(N)ncnc32)cc1)N1CCc2nn(C)c(Cc3ccccc3)c2C1=O the remaining binding was 43% (KINOMEscan; 0.1 µM; baseline: DMSO control).
The remaining binding of O=C(c1ccc(Nc2ncc(Cl)c(-c3cc4ccccc4s3)n2)cc1)N1CCC(N2CCCC2)CC1 is reported as 97% (binding, KINOMEscan competition binding; 1 µM; baseline: DMSO control).
COc1cnc(Nc2cccc(S(N)(=O)=O)c2)nc1N1CCN(c2ccccc2)C(=O)C1 gave a remaining binding of 100% (KINOMEscan; 1 µM).
With O=C(c1ccc(Nc2nccc(-c3cc4ccccc4s3)n2)cc1)N1CCC(N2CCCC2)CC1 the remaining binding was 58% (binding, KINOMEscan competition binding; 1 µM; baseline: DMSO control).
COc1cc(N2CCN(C)CC2)ccc1Nc1nc(N)n(C(=O)NCc2ccccc2S(=O)(=O)C(C)C)n1 has a remaining activity of 31% (enzyme activity; 10 µM; baseline: control).
COc1cc(-c2cncc3c2CN(C)Cc2cc(N4CCNCC4)ccc2-3)cc(OC)c1OC has a remaining activity of 92% (kinase activity; 1 µM, human enzyme, with: ATP 10 µM; baseline: DMSO control).
For CSc1nc(C)c(-c2ccnc(Nc3ccc(N4CCOCC4)cc3)c2)[nH]1, the inhibition was 21.6% (kinase activity; 10 µM).
With O=C(NC1CCC1)c1ccc2nc(-c3cccc(NS(=O)(=O)NCCN4CCCCC4)c3)cn2c1 the remaining activity was 100% (enzyme activity; 10 µM).
With CCN1CCN(Cc2ccc(C(=O)Nc3ccc(C)c(Oc4ccc5c(c4)CC(=O)N5)c3)cc2C(F)(F)F)CC1 the remaining binding was 100% (KINOMEscan; 1 µM).
O=C(c1ccc(Nc2ncc(Cl)c(-c3ccc(Cl)s3)n2)cc1)N1CCC(N2CCCC2)CC1 has a remaining binding of 92% (binding, KINOMEscan competition binding; 1 µM; baseline: DMSO control).
For COc1cnc(Nc2cccc(S(N)(=O)=O)c2)nc1N1CCN(c2ccccc2)CC1, the remaining binding was 100% (KINOMEscan; 1 µM).

For quick reference, copied from above:
For CSc1nc(C)c(-c2ccnc(Nc3ccc(N4CCOCC4)cc3)c2)[nH]1, the inhibition was 21.6% (kinase activity; 10 µM).
With O=C(NC1CCC1)c1ccc2nc(-c3cccc(NS(=O)(=O)NCCN4CCCCC4)c3)cn2c1 the remaining activity was 100% (enzyme activity; 10 µM).
